Measurements of several laboratories.
Protocols differ between the studies behind these lines. Several values in a cell are separate wells, animals, samples, runs or records. ± marks the error that the study gave.
Sequence of UniProt P10721 (whole entry, unmodified, looked up): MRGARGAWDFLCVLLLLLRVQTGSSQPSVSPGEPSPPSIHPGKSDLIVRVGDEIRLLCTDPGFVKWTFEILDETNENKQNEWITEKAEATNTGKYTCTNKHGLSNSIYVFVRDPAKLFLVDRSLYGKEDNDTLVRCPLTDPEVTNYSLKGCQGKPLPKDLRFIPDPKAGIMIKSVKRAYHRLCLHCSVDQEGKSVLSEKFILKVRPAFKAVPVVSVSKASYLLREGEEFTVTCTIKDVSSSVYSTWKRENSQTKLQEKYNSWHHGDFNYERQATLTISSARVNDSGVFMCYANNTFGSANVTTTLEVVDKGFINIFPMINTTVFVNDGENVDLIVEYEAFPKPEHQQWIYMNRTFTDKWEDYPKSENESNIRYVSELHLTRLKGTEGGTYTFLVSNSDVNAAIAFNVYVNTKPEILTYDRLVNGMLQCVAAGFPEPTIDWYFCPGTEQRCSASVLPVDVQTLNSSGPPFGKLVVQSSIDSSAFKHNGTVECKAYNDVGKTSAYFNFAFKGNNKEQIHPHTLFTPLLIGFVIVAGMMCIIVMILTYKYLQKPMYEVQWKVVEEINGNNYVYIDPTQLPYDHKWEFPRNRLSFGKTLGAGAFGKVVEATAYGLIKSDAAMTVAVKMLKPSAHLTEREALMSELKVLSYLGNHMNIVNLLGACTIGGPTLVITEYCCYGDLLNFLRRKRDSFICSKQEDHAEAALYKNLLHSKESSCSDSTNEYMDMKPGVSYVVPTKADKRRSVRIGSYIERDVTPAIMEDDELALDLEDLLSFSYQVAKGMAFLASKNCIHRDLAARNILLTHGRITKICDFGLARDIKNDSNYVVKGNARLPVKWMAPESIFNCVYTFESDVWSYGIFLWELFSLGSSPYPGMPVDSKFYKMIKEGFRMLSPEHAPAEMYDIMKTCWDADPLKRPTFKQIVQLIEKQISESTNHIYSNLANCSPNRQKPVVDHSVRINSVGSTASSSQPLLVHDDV

Compound | tested on | test | test system | setting | scale | measurement | result
C=CCN1C(=O)C(CC=C)(C(=O)OCC)Oc2cc(F)ccc21 (stereo not drawn) | L02 | cell growth or viability, CCK-8 |  | 0.78 µM, 72 h |  | inhibition | 0.07%
O=C(O)c1ccc(-c2nc(-c3ccccc3Cl)c3sccn23)cc1 | K562 | erythroid differentiation, flow cytometry |  | 0.1 mM, 24 h |  | CD235a-positive cells | 96.1% and 92% and 92.9%
CSc1ccc2c(c1)c(CCN)c(C)n2Cc1ccccc1Cl | HMC3 | nuclear intensity, high-content imaging |  | geometric mean |  | IC50 | 5.41 µM
CSCC[C@H](NC(=O)[C@@H](NC(=O)[C@H](CCC(N)=O)NC(=O)[C@H](CO)NC(=O)[C@@H](N)C(C)C)[C@@H](C)O)C(=O)N[C@@H](CCCNC(=N)N)C(=O)N[C@@H](CCC(N)=O)C(=O)N[C@H](C(=O)N[C@@H](C)C(=O)N[C@H](C(=O)N1CCC[C@H]1C(=O)N[C@@H](CC(C)C)C(=O)N[C@@H](CC(C)C)C(=O)N[C@@H](Cc1c[nH]c2ccccc12)C(=O)N[C@@H](Cc1ccccc1)C(=O)N[C@@H](Cc1c[nH]c2ccccc12)C(=O)N[C@H](C(=O)NCC(=O)N[C@@H](CO)C(=O)N[C@@H](CC(C)C)C(=O)NCCOCCOCCOCCOCCOCCOCCOCCOCCOCCOCCOCCOCCC(=O)N[C@@H](CS)C(N)=O)[C@@H](C)O)C(C)C)[C@@H](C)O | H2073 lung adenocarcinoma | cell binding, phage binding, refers to: output/input phage |  | 10 min, 37 °C | relative to: control phage | selectivity ratio | 21 ± 5.5
COc1ccccc1-c1n[nH]c2nc(N[C@H]3CC[C@H](NS(=O)(=O)CC(C)C)CC3)ncc12 |  | bead binding, competition bead pull-down, refers to: LINJ.06.0030 | Leishmania donovani extract | 10 µM | relative to: vehicle | relative abundance | 0.93
CC(C)(C)C(=O)OCOP(=O)(OCOC(=O)C(C)(C)C)C1CCCN(O)C1=O (stereo not drawn) | MDA-MB-435 |  |  |  |  | TGI | 22.5 µM
CC(C)C[C@H](NC(=O)[C@H](CC(=O)O)NC(=O)CNC(=O)[C@@H](N)CCCNC(=N)N)C(=O)N[C@@H](C)C(=O)N[C@H](C(=O)N[C@@H](CC(C)C)C(=O)N[C@@H](CCCNC(=N)N)C(=O)N[C@@H](CCC(N)=O)C(=O)N[C@@H](CC(C)C)C(=O)N[C@@H](C)C(=O)N[C@@H](CCC(N)=O)C(=O)N[C@@H](CCC(=O)O)C(=O)N[C@@H](CC(=O)O)C(=O)NCC(=O)N[C@H](C(=O)N[C@H](C(=O)NCC(=O)N[C@H](C(=O)N[C@@H](CCCNC(=N)N)C(=O)NCCOCCOCCOCCOCCOCCOCCOCCOCCOCCOCCOCCOCCC(=O)N[C@@H](CS)C(N)=O)C(C)C)C(C)C)C(C)C)[C@@H](C)O | H1819 | phage binding |  | 10 min, 37 °C | relative to: control phage | selectivity ratio | 250 ± 30
COc1ccccc1-c1n[nH]c2nc(NC3CCN(C(=O)Cc4ccc(F)cc4F)CC3)ncc12 |  | bead binding, competition bead pull-down, refers to: LINJ.25.1220 | Leishmania donovani axenic amastigote extract | 10 µM | relative to: vehicle | relative abundance | 1.29
CC(C)CC(C(=O)N1CC2(CC1C#N)C(=O)Nc1ccccc12)N(C)C(=O)c1cc2c(F)cc(F)c(F)c2[nH]1 (stereo not drawn) | Human coronavirus 229E | cytopathic effect | MRC5 | 1.125 µM |  | inhibition | 102%
O=C1NC2(CC2)COc2ncc(F)cc2[C@H]2COCCN2c2ccn3ncc1c3n2 |  |  | Sprague-Dawley rat, female, adrenals | oral, 20 mg/kg/day, 4 weeks, end of treatment |  | organ-to-brain weight ratio | 4.02 ± 0.41%
Cc1cc(Oc2nc(N3CC[C@@H](c4ccncc4)C3)ncc2F)[nH]n1 | SK-HEP1 | cell proliferation | liver cancer |  |  | IC50 | 60.3 µM
CS(C)(=O)=Nc1ccc(-c2ccc(-c3nc4cc(O[C@@H]5CO[C@H]6[C@@H]5OC[C@H]6O)[nH]c4cc3F)cc2)cc1 | KIT (Homo sapiens, UniProt P10721, D816V) | enzyme activity, inhibitor |  | 10 µM |  | inhibition | 1%
CC(C)C12OC1C1OC13C1(C)CCC4=C(COC4=O)C1CC1OC13C2OC(=O)CCC(=O)OC1OC(CO)C(O)C(O)C1O (stereo not drawn) | SK-MEL-1 | cell growth or viability, XTT |  | 47 h |  | IC50 | 1.29 µM
O=C(C[Se]C(=O)c1ccccc1)Nc1cccc(C(F)(F)F)c1 | NCI60 NSCLC subpanel mean | cell growth |  |  |  | TGI | 4.89 µM
C#CCN1C(=O)C(CC#C)(C(=O)OCC)Oc2ccccc21 (stereo not drawn) | HaCaT | cell growth or viability, CCK-8 |  | 6.25 µM, 72 h |  | inhibition | 0.52%

Repeated from above:
Compound | tested on | test | test system | setting | scale | measurement | result
CC(C)CC(C(=O)N1CC2(CC1C#N)C(=O)Nc1ccccc12)N(C)C(=O)c1cc2c(F)cc(F)c(F)c2[nH]1 (stereo not drawn) | Human coronavirus 229E | cytopathic effect | MRC5 | 1.125 µM |  | inhibition | 102%
